# Published values collected from several papers.
# Numbers after ± are the reported error.
# TBK1 residues 1-657 S172A: TBK1 residues 1-657 S172A (Homo sapiens, UniProt Q9UHD2)
# KARS1 66-597 del1-65: KARS1 66-597 del1-65 (Homo sapiens, UniProt Q15046)
# Sequence of UniProt Q15046 (whole entry, unmodified, looked up): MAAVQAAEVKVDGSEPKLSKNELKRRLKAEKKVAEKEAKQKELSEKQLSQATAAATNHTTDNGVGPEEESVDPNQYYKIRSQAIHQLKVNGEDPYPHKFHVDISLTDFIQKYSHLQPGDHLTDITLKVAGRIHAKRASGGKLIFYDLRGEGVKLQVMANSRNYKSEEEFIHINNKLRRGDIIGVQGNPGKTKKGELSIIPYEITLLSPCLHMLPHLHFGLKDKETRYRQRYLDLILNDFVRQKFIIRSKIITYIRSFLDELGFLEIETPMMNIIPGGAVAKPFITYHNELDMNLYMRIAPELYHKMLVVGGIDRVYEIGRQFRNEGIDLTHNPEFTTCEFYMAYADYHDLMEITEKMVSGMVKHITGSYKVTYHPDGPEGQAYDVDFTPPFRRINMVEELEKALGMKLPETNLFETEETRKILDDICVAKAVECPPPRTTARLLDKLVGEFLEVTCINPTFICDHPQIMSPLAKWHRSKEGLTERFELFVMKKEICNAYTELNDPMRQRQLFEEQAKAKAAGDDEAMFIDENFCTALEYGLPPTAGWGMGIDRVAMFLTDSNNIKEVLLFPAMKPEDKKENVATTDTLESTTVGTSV
# csn2 full length assumed: csn2 full length assumed (Streptococcus agalactiae, UniProt E7S4M0)
# B1: STING1 155-379 S379A (Homo sapiens, UniProt Q86WV6); chain VAHGLAWSYYIGYLRLILPELQARIRTYNQHYNNLLRGAVSQRLYILLPLDCGVPDNLSMADPNIRFLDKLPQQTGDHAGIKDRVYSNSIYELLENGQRAGTCVLEYATPLQTLFAMSQYSQAGFSREDRLEQAKLFCRTLEDILADAPESQNNCRLIAYQEPADDSSFSLSQEVLRHLRQEEKEEVTVGSLKTSAVPSTSTMSQEPELLISGMEKPLPLRTDFA
# B2: STING1 155-379 K370A (Homo sapiens, UniProt Q86WV6); chain VAHGLAWSYYIGYLRLILPELQARIRTYNQHYNNLLRGAVSQRLYILLPLDCGVPDNLSMADPNIRFLDKLPQQTGDHAGIKDRVYSNSIYELLENGQRAGTCVLEYATPLQTLFAMSQYSQAGFSREDRLEQAKLFCRTLEDILADAPESQNNCRLIAYQEPADDSSFSLSQEVLRHLRQEEKEEVTVGSLKTSAVPSTSTMSQEPELLISGMEAPLPLRTDFS
# Sequence of UniProt P0CAW2 (whole entry, looked up): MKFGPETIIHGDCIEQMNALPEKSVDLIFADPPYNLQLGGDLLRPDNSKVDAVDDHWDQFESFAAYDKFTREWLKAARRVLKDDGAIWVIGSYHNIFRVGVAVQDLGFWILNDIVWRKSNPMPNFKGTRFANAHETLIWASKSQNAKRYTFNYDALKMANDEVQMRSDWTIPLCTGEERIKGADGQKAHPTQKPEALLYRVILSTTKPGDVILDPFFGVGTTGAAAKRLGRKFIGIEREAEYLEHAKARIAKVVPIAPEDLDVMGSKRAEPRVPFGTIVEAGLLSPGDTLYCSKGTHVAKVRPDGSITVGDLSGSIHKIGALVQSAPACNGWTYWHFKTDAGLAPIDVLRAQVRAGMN
Molecule,target or system,test,test system,conditions,measurement,value
B1 (STING1 155-379 S379A),TBK1 residues 1-657 S172A,SPR,,"read off a plot, with: cGAMP 1 µM",Kd,37 µM
AAGGCTACCTCTTATTGAGAAGGTGATTT (dsDNA),"mat1-1-1 1-342 (Penicillium chrysogenum, UniProt B1GVB9)",EMSA,"double-stranded DNA, one strand shown",,binding,no binding
GGCUCUGGUAACUAGAGAUCCCUCAGACCACUCUAGACGGUAUAUAUAUAUGUAAAAAUAUAUAUAUAUCUCUAGCAGUGGCGCCCGAACAGGGACUUUAAAGUGAAAGUAACAGGGA (structured RNA),KARS1 66-597 del1-65,fluorescence anisotropy,folded RNA,,binding,binds
B2 (STING1 155-379 K370A),TBK1 residues 1-657 S172A,SPR,,"read off a plot, with: cGAMP 1 µM",Kd,17 µM
GGCUCUGGUAACUAGAGAUCCCUCAGACCAUGAGAAUGGCGCCCGAACAGGGACUUUAAAGUGAAAGUAACAGGGA (structured RNA),KARS1 66-597 del1-65,fluorescence anisotropy,folded RNA,,binding,binds
DNA 1 GATTACTAAAGCTCAAAAGAAAATTTTCTACGAGGTTTTAGAGCTGTGCTGTTTCGAATGGTTCCAAAAC / DNA 2 AAAACAGACATATCAAGATCTAAAATGTCAGTTTTGGAACCATTCGAAACAGCACAGCTCTAAAACCTCGTAGAAAATTTTCTTTTGAGCTTTAGTAATC (dsDNA; 5' overhang),csn2 full length assumed,EMSA,double-stranded DNA,,binding,binds
ATGATCAGTACGATGTTCACTGTACTCTGACTCGCCTGACATGACTGACGGACTTGCACT (dsDNA; hemimethylated N6-methyladenine),"ccrMIM 1-358 (Caulobacter vibrioides, UniProt P0CAW2)",EMSA,"double-stranded DNA, one strand shown",with: sinefungin 60 µM,Kd,0.075 µM
ATTTAAGATATCTTAAAT (dsDNA),"repressor C2 1-216 N46S (Salmonella phage P22, UniProt P69202)",filter binding,"double-stranded DNA, one strand shown",NaCl 50 mM,Kd,0.0504 µM
"dmaW (Aspergillus fumigatus, UniProt Q50EL0)",C/C=C/C=C(\C)COP(=O)(O)OP(=O)(O)O,steady-state kinetics,,"pH 7.5, 35 °C",kcat/Km,200 ± 33.3 M⁻¹ s⁻¹
GTTTTAGAGCTGTGCTGTTTCGAATGGTTCCAAAAC (ssDNA),csn2 full length assumed,EMSA,single-stranded DNA,,binding,no binding
"ATTTAAGATATCTTAAAT (dsDNA; 3-deaza-A at 2,3,16,17)","repressor C2 1-216 (Salmonella phage P22, UniProt P69202)",filter binding,"double-stranded DNA, one strand shown",,binding,no binding
